Literature values, collected from citations in different studies.
Each line is one published result; not all experiments were run side by side.
Organism: Plasmodium falciparum

With `c1ccc(CCNc2ncnc3c2[nH]c2ccccc23)cc1` the IC50 was 600 nM (3D7; 72 h, whole cell).
With `CCCCCCCCCCCC[N+](C)(C)C` the IC50 was 500 nM (growth).
For `CCN(CC)CCCC(C)Nc1ccnc2cc(Cl)ccc12` (stereo not drawn), the IC50 was 80 nM (parasite growth; 3D7).
With `CCCCCCCCCCCCCCCC[N+](C)(C)C` the IC50 was 10000 nM (growth).
With `CN(CCc1ccccc1)CCC(O)(P(=O)(O)O)P(=O)(O)O` the IC50 was 33600 nM (parasite growth).
`Cc1ccc(Nc2nc(-c3ccccn3)cs2)cc1` gave an IC50 of 350 to 400 nM (3D7, blood stages).
For `C[C@H]1CCC[C@H](C[C@H]2Cc3cc(O)cc(O)c3C(=O)O2)O1`, the IC50 was 40 to 90 nM (parasite growth; blood and liver stages).
For `O=C1C(O)=C([C@H]2CC[C@H](c3ccc(Cl)cc3)CC2)C(=O)c2ccccc21`, the IC50 was 1 nM (parasite growth; 3D7).
`CC1=C2Cc3cc(ccc3O)C(=O)O[C@H](C(C)(C)Br)CC[C@](C)(O)[C@H](Br)CC[C@]2(C)[C@@H](Br)CC1` has an IC50 of under 1000 nM (chloroquine-sensitive).
`O=CN(O)CCCP(=O)(O)O` gave an IC50 of 90 to 350 nM (parasite growth; 3D7; range reported).
With `Cc1cccc(-c2nn(-c3ccccc3)cc2C(=O)Nc2nnc(C)o2)c1` the IC50 was 1160 nM (3D7; 72 h, whole cell).
The IC50 of `S=C(NCCCNCCCCCCNCCCNC(=S)NC(c1ccccc1)c1ccccc1)NC(c1ccccc1)c1ccccc1` is reported as 211 nM (parasite growth; 3D7; intraerythrocytic stage).

A few entries again:
`O=CN(O)CCCP(=O)(O)O` gave an IC50 of 90 to 350 nM (parasite growth; 3D7; range reported).
With `Cc1cccc(-c2nn(-c3ccccc3)cc2C(=O)Nc2nnc(C)o2)c1` the IC50 was 1160 nM (3D7; 72 h, whole cell).
